Measured values from different studies.
A part holds a random share of what one study measured.

Block 1 — technique: protein binding microarray; molecule type: double-stranded DNA, one strand shown; matrix: in vitro; tested at: not given; relative to: not given; reading: higher = stronger binding; endpoint: E-score
Target: Histone acetyltransferase KAT6A, winged helix 1, GST fusion (KAT6A, Homo sapiens, UniProt Q92794, residues 1-85)
Notes: 8-mer, flanks averaged, mean of 2 arrays, mostly near background
Construct (chain): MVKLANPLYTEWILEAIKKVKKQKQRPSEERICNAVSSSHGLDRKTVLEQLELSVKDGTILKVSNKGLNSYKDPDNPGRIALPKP
ACAGTAAT: -0.0642
CGACCATC: -0.068
GAGAGGAC: -0.165
AACGTACT: -0.062
ACGCTTAT: 0.00719
ACTCCTAC: -0.133
CCCTTGAG: -0.195

Block 2 — technique: protein-binding microarray; molecule type: double-stranded DNA, one strand shown; matrix: in vitro; tested at: 250 nM; notes: 60-bp whole probe; with: salmon DNA 0.4 mg/ml; relative to: random background probes; reading: higher = stronger binding; endpoint: log fluorescence; shared flanks, not repeated: GCCTAGCAC … GTCTTGATTCGCTTGACGCTGCTG
Target: Interferon regulatory factor 7, full length, phosphomimetic (IRF7, Homo sapiens, UniProt Q92985, residues 1-503, S101K/S471D/S472D/S475D/S476D/S477D/S483D/S484D/S487D)
Construct (chain): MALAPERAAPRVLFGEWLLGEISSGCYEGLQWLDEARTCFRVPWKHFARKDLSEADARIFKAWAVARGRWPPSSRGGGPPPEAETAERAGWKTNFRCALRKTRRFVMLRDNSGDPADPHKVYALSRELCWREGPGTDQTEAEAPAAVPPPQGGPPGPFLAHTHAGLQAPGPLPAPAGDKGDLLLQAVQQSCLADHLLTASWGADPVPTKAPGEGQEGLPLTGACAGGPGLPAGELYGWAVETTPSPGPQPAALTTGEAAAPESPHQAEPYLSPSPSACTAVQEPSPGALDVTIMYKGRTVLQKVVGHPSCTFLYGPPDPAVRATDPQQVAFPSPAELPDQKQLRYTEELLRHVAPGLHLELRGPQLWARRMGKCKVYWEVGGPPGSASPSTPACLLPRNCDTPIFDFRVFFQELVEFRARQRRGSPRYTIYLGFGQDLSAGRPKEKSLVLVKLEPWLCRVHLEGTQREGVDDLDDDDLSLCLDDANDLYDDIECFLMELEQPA
GACGATTTCGGGTTTCGTGACGTGCTA: 2.64 z-score
TGATTTTGGTCTTTCTGTTTGTGCTAG: 0.979 z-score
GACGAACTGAGAATCGAGACGTGCTAG: 0.187 z-score
GGCTTGACGTCATCCCCTTGGTGCTAG: -0.404 z-score
TTAGGTCTCCATCTCCTTTAGTGCTAG: 0.319 z-score

Block 3 — technique: RNA Bind-n-Seq; molecule type: RNA; matrix: in vitro; tested at: 365 nM; relative to: no-protein control; reading: higher = stronger binding; endpoint: RBNS enrichment (R)
Target: RNA binding protein fox-1 homolog 2, RRM domain, GST-SBP tag (RBFOX2, Homo sapiens, UniProt O43251-10, residues 100-194)
Notes: natural RNA segment, single round, ends assumed
Construct (chain): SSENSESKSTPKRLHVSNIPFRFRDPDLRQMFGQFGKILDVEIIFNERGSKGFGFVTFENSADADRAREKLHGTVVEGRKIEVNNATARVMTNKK
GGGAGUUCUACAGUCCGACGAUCUGGCUCCCUUGUCUCCAGGGCUUUGGAGGAUCAGGGUAGGGAGGGCUCUGUCUCUAAGCCAGGUGUCAGGAUCAGAAUCAUGGGUAGAAGGUGCCAUUCAGCUCACAGCCUGGAAUUCUCGGGUGCCAA: 0.705
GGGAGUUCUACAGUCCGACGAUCUGGACUAUCCAAUUCAGGAAGCAGGAAAGCAGCCAGGAAAUGUGCUUCUGUUUUGCCAGUUAUUUCCGACAGUACUAUCAGAAGGAAGUGGUCAGCAGCUGUUCCUAGCCUGGAAUUCUCGGGUGCCAA: 0.338
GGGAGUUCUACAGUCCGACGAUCUGAGUGAAGGCAGUCAACAUCCUAGUAUGAAUCAGACCUAGCAGAAAUGUAAAUUAUUUCAAGUACUUCAGGGUUUAGUUUUCUUAGUGACACCCUGGACCCUGGAUGCUUGGAAUUCUCGGGUGCCAA: 1.07
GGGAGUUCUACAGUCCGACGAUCGUGAUUGUCAAUAUUACAGAAAACAAAAAUGGAUUGCCCCUCCAAGGACCAAACAGAUUCAAGGAGCAUCAUUUAAGCUAAGAAGAGACCUAAGUGAUGAAACUAGCUGUUGGAAUUCUCGGGUGCCAA: 0.29
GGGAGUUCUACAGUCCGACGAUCUUUUUUUGAACAAAAUGACUGGCUUUGACAAAACUAUCUUGCUCUUUUUAAAUGUCACUUGAUACUAGAAUGCGAUUUAAAAGCAUGUAAUGCCUCAGGAGUCCGGCAUAUGGAAUUCUCGGGUGCCAA: 1.22

Mixed results
PhoQ, residues 284 288 289 292 302 303 NLMGRA — fold induction (PhoP, residues 12 14 15 18 19 LWHVM (Escherichia coli, UniProt P23836); Sort-seq, measured: YFP reporter; E. coli; PhoQ-PhoP variant library, with: 10 µM Mg2+; relative to: high Mg2+ state, higher = stronger signaling): 12.8
